Measured values pooled from the literature.
Lines come from different studies, so protocols differ. ± gives the spread as reported.
Target: Acetylcholinesterase (ache, Electrophorus electricus, UniProt O42275)
UniProt O42275, sequence (whole entry, looked up): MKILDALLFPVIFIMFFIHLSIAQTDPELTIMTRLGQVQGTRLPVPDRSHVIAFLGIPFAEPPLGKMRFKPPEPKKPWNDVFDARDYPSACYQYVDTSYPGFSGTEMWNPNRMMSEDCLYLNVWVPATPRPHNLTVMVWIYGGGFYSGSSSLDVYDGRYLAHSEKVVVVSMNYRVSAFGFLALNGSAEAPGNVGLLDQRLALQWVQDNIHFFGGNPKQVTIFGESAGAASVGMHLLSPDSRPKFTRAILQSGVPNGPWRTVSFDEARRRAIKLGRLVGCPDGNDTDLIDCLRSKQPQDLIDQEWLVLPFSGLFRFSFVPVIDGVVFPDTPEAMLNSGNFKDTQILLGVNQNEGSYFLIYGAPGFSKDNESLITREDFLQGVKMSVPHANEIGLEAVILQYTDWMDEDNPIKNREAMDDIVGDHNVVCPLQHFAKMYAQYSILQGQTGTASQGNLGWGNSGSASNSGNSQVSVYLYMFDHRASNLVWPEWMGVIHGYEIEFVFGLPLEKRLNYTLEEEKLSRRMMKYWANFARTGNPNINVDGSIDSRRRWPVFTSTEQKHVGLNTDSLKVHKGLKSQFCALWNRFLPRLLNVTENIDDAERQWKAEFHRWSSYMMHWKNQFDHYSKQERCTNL

Cc1cc(O)c2c(c1)C(=O)c1c(O)ccc(O)c1C2=O — result for “propidium iodide displacement”: 35.9% (peripheral anionic site binding, propidium iodide competition; 10 µM).
With O=C(/C=C/c1ccccc1)c1cc2ccccc2oc1=O the remaining activity was 86 ± 3.6% (10 µM).
COc1ccc2c(c1OC)CC1c3c(cc4c(c3-2)OCO4)CC[N+]1(C)[O-] (single isomer, unassigned; (-)) — result for IC50: “inactive” (enzyme activity, inhibitor, Ellman; up to 0.1 µg/mL).
O=C(/C=C/c1cccc(F)c1)c1cc2ccccc2oc1=O has a remaining activity of 75.5% (enzyme activity, inhibitor; 10 µM).
COc1c(OC2OC(CO)C(O)C(O)C2O)cc2c3c1-c1ccccc1CC3NCC2 (single isomer, unassigned; (-)): IC50 “inactive” (enzyme activity, inhibitor, Ellman; up to 0.1 µg/mL).
For Cc1nc(-c2ccc(Cl)cc2)nc2sc3c(=O)n(CCN4CCOCC4)cnc3c12, the propidium displacement was 0% (peripheral site binding; 0.24 µM).
The remaining activity of O=C(/C=C/c1ccc(F)cc1)c1cc2ccccc2oc1=O is reported as 76.7% (enzyme activity, inhibitor; 10 µM).
O=c1c(NCc2ccccc2)c(NC2CCN(Cc3ccccc3)CC2)c1=O has an inhibition of 38.7% (enzyme activity, inhibitor, Ellman; 12.5 µM).
With COc1ccc(Nc2c3c(nc4ccc(Cl)cc24)CCCC3)nc1 the inhibition was 72.5% (enzyme activity, inhibitor, Ellman; 50 µM).
O=C(/C=C/c1ccc(Br)cc1)c1cc2ccccc2oc1=O has a remaining activity of 69.6% (enzyme activity, inhibitor; 10 µM).
O=c1c(NCCc2ccc(O)cc2)c(NC2CCN(Cc3ccccc3)CC2)c1=O has an inhibition of 48.3% (enzyme activity, inhibitor, Ellman; 12.5 µM).
The inhibition of Cc1ccc2c(Nc3ccc4ccccc4n3)c3c(nc2c1)CCCC3 is reported as 25.3% (enzyme activity, inhibitor, Ellman; 50 µM).
COCCN1COc2c(cc3c4c(c(=O)oc3c2C)CCC4)C1 has a propidium displacement of 57% (peripheral site binding; 3 µM).
The inhibition of COc1ccc(CNc2c(NC3CCN(Cc4ccccc4)CC3)c(=O)c2=O)cc1 is reported as 61% (enzyme activity, inhibitor, Ellman; 12.5 µM).
COc1ccnc(Nc2c3c(nc4ccc(Cl)cc24)CCCC3)c1 has an inhibition of 37.6% (enzyme activity, inhibitor, Ellman; 100 µM).
With Cc1ccc(CNc2c(NC3CCN(Cc4ccccc4)CC3)c(=O)c2=O)cc1 the inhibition was 60.3% (enzyme activity, inhibitor, Ellman; 25 µM).
The remaining activity of O=C(/C=C/c1ccccc1F)c1cc2ccccc2oc1=O is reported as 69.6% (enzyme activity, inhibitor; 10 µM).
COc1ccc([C@@H]2N=NC(NCCc3c[nH]c4ccc(C)cc34)=NC2=O)cc1 gave a propidium displacement of 100% (peripheral site binding; 3 µM).
The inhibition of Cc1ccnc(Nc2c3c(nc4cc(C)ccc24)CCCC3)c1 is reported as 35.9% (enzyme activity, inhibitor, Ellman; 50 µM).
For O=c1oc2c(CNCCc3cccc(F)c3)c(O)ccc2c2c1CCC2, the propidium displacement was 44% (peripheral site binding; 0.24 µM).
COc1ccnc(Nc2c3c(nc4ccccc24)CCC(C)C3)c1 (stereo not shown) gave an inhibition of 49.9% (enzyme activity, inhibitor, Ellman; 50 µM).
O=c1c(Nc2ccc(O)cc2)c(NC2CCN(Cc3ccccc3)CC2)c1=O gave an inhibition of 53.5% (enzyme activity, inhibitor, Ellman; 12.5 µM).
For Cc1cccc(Nc2c3c(nc4ccccc24)CCCC3)n1, the inhibition was 44.7% (enzyme activity, inhibitor, Ellman; 100 µM).
For O=c1c(NCCc2ccccc2)c(NC2CCN(Cc3ccccc3)CC2)c1=O, the inhibition was 45.5% (enzyme activity, inhibitor, Ellman; 12.5 µM).
COc1ccc2cc(Nc3c4c(nc5ccccc35)CCCC4)ccc2c1 has an inhibition of 57.7% (enzyme activity, inhibitor, Ellman; 50 µM).
COc1ccc(CCNc2c(NC3CCN(Cc4ccccc4)CC3)c(=O)c2=O)cc1OC has an inhibition of 50.9% (enzyme activity, inhibitor, Ellman; 12.5 µM).
For Clc1ccc(Nc2c3c(nc4ccccc24)CCCC3)cc1, the inhibition was 59.6% (enzyme activity, inhibitor, Ellman; 100 µM).
Cc1ccc(CCNc2c(NC3CCN(Cc4ccccc4)CC3)c(=O)c2=O)cc1 gave an inhibition of 43.9% (enzyme activity, inhibitor, Ellman; 12.5 µM).

For quick reference, copied from above:
COCCN1COc2c(cc3c4c(c(=O)oc3c2C)CCC4)C1 has a propidium displacement of 57% (peripheral site binding; 3 µM).
Cc1cc(O)c2c(c1)C(=O)c1c(O)ccc(O)c1C2=O — result for “propidium iodide displacement”: 35.9% (peripheral anionic site binding, propidium iodide competition; 10 µM).
For Cc1cccc(Nc2c3c(nc4ccccc24)CCCC3)n1, the inhibition was 44.7% (enzyme activity, inhibitor, Ellman; 100 µM).
For O=c1c(NCCc2ccccc2)c(NC2CCN(Cc3ccccc3)CC2)c1=O, the inhibition was 45.5% (enzyme activity, inhibitor, Ellman; 12.5 µM).
